{"data": "Measurements gathered from unrelated publications", "note": "Numbered parts are unrelated; each lists some results of a single study. Positions count from the first letter of the parent shown."}
{"data": "Block 1", "target": "Centromere-binding protein 1, full length, His-tagged (CBF1, Saccharomyces cerevisiae, UniProt P17106, residues 1-351)", "method": "competition protein-binding microarray", "form": "double-stranded DNA, one strand shown", "sample": "in vitro", "tested at": "2 µM", "setting": "whole 60-bp probe, lowest competitor level", "added": "Pho4 competitor, 0.05 µM", "reading": "higher = stronger binding", "sequence of UniProt P17106 (whole entry, looked up)": "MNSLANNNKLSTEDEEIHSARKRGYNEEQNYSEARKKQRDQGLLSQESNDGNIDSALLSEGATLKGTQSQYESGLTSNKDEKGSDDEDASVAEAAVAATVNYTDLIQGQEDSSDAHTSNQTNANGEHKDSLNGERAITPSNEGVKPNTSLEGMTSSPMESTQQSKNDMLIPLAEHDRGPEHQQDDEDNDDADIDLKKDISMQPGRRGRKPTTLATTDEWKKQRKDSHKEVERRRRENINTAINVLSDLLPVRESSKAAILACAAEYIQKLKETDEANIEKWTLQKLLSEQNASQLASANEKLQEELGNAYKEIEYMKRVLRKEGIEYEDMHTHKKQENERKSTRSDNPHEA"}
{"Sequence": "TCGCCTACGCTATTTCACGTTTGTGCTGATAGAAACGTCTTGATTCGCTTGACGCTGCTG", "fluorescence intensity": "95.1 a.u."}
{"Sequence": "GTCTTGTCTCATTGACAAGTGGGTGTCCCCACTTCAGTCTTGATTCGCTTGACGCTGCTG", "fluorescence intensity": "77.6 a.u."}
{"Sequence": "CCTCCGTACCACCCAAACGTGTAGTTTTGATGTTTTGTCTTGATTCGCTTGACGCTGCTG", "fluorescence intensity": "80.2 a.u."}
{"Sequence": "CATCATGCAGGTCCACACGTGATGGGAAGGGCAACGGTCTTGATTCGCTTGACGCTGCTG", "fluorescence intensity": "2250 a.u."}
{"Sequence": "TCATTTCGAATCGCGTACGTGGCCGGTTGTGGCTGGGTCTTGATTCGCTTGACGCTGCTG", "fluorescence intensity": "73.3 a.u."}
{"Sequence": "GCTTATATCAACCGTCACGGGACTCTATCCAAGACTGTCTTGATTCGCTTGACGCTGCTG", "fluorescence intensity": "873 a.u."}
{"Sequence": "CGTCCTAGCGATTGAAGAGTGGGTGCCATGAGGAAGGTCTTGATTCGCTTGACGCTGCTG", "fluorescence intensity": "68.4 a.u."}
{"Sequence": "AACGGAAATGCATCTCGCGTGGCAAGGCGGCTCGCTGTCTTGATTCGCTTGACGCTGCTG", "fluorescence intensity": "57.5 a.u."}
{"Sequence": "CTAACGAAGGTTTGCTGAGTGGGTGACAAGCCAAGTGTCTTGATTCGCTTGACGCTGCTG", "fluorescence intensity": "62.2 a.u."}
{"Sequence": "GTCTTGTCTCATTGAAGAGTGGGTGTCCCCACTTCAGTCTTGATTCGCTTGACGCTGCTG", "fluorescence intensity": "85.2 a.u."}
{"data": "Block 2", "target": "CREB3L3, bZIP domain (human)", "method": "DHFR protein complementation", "sample": "yeast", "setting": "single substitutions, most at no-binding floor", "reference": "wild-type JUN-FOS pair", "reading": "higher = stronger binding", "parent": "JUN, bZIP domain (human); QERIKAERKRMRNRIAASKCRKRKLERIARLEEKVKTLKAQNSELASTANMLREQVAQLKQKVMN; partner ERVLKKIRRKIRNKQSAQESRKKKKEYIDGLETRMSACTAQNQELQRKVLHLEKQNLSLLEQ"}
{"Variant": "E33M", "binding fitness": "-1.57 natural log"}
{"Variant": "Q55A", "binding fitness": "-1.57 natural log"}
{"Variant": "M51P", "binding fitness": "-1.5 natural log"}
{"Variant": "K39D", "binding fitness": "-1.53 natural log"}
{"data": "Block 3", "target": "CCNE2, cyclin fold, Cln2 fusion (human)", "method": "yeast growth competition, sequencing", "sample": "yeast", "setting": "strong parent motif", "reference": "not given", "reading": "higher = stronger binding", "parent": "INSM1 docking peptide (human); PKAIRKLHFEDEV"}
{"Variant": "K2V", "normalised enrichment score": 0.688}
{"Variant": "F9V", "normalised enrichment score": -0.0735}
{"Variant": "F9K", "normalised enrichment score": -0.301}
{"Variant": "R5I", "normalised enrichment score": -0.21}
{"Variant": "E10F", "normalised enrichment score": 1.14}
{"data": "Further values, each from its own experiment"}
{"Molecule": "PhoQ, residues 284 288 289 292 302 303 AGCYAI", "target": "PhoP, residues 12 14 15 18 19 YHFSH (Escherichia coli, UniProt P23836)", "assay": "Sort-seq, measured: YFP reporter", "system": "E. coli", "setting": "PhoQ-PhoP variant library, added: 10 µM Mg2+", "scale": "reference: high Mg2+ state, higher = stronger signaling", "quantity": "fold induction", "value": 14.7}
{"note": "For quick reference, copied from above (block 1):"}
{"Sequence": "TCGCCTACGCTATTTCACGTTTGTGCTGATAGAAACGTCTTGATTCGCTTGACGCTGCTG", "fluorescence intensity": "95.1 a.u."}
